{"data": "Results of several laboratories", "note": "A part holds a random share of what one study measured. “And” joins repeats or separate records; there may be more than shown. pIC50: −log10 of the molar value.", "chain of UniProt Q99640 (whole entry, looked up)": "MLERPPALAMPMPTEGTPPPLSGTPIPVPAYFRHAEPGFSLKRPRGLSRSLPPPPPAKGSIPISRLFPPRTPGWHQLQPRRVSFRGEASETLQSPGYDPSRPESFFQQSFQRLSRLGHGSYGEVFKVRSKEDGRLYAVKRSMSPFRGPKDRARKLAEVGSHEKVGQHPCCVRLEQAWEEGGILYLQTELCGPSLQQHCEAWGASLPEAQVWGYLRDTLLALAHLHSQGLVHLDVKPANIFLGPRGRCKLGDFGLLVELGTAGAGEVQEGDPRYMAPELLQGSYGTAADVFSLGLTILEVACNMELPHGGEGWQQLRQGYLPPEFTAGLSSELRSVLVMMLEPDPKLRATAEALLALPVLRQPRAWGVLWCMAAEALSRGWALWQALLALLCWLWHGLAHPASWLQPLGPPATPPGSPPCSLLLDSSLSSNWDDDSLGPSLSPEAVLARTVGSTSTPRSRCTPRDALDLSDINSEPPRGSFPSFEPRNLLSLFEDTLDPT"}
{"data": "Study 1", "SMILES": "CCN1/C(=C/C=C2\\CCCC(/C=C/C3=[N+](CC)c4ccccc4C3(C)C)=C2NCCCCCCCCN2CCC(Nc3nc4ccccc4n3Cc3ccc(F)cc3)CC2)C(C)(C)c2ccccc21", "cell line": "U-87 MG", "concentration": "concentration not given", "baseline": "DMSO"}
{"test": "refers to: IGFLR1 mRNA", "log2 fold change": -2.12}
{"test": "refers to: ASB2 mRNA", "log2 fold change": -2.26}
{"test": "refers to: FAM171A1 mRNA", "log2 fold change": -1.18}
{"test": "refers to: SEMA6D mRNA", "log2 fold change": 2.32}
{"test": "refers to: BTBD6 mRNA", "log2 fold change": -0.888}
{"test": "refers to: H6PD", "log2 fold change": -0.945}
{"test": "refers to: NFIC mRNA", "log2 fold change": -0.969}
{"test": "refers to: NPAS4 mRNA", "log2 fold change": -2.98}
{"test": "refers to: LRR1 mRNA", "log2 fold change": -1.33}
{"test": "refers to: HOXB9 mRNA", "log2 fold change": 4.26}
{"test": "refers to: ZNF341 mRNA", "log2 fold change": -1.53}
{"test": "refers to: PLEC mRNA", "log2 fold change": -1.35}
{"test": "refers to: LRRC25 mRNA", "log2 fold change": -2.89}
{"data": "Study 2", "Structure (SMILES)": "O=C(O)C1(O)Oc2cc(F)ccc2N(Cc2ccccc2)C1=O (centres unmarked)"}
{"organism": "Oryza sativa", "test": "fresh weight", "setting": "soil surface spray, 150 g ai/ha, 21 days, pre-emergence crop safety", "inhibition": "0%"}
{"organism": "Arabidopsis thaliana", "test": "root length", "system": "Col-0", "setting": "25.0 µg/mL, 7 days, seed germination, dark", "inhibition": "88.3%"}
{"organism": "Zea mays", "test": "fresh weight", "setting": "soil surface spray, 150 g ai/ha, 21 days, pre-emergence crop safety", "inhibition": "21.4% and 16.4% and 17.1%"}
{"organism": "Setaria viridis", "test": "fresh weight", "setting": "150 g ai/ha, pre-emergence treatment", "inhibition": "5.4% and 4.8% and 4.2%"}
{"organism": "Arabidopsis thaliana", "test": "root length", "system": "Col-0, seedlings", "setting": "12.5 µg/mL", "scale": "baseline: water control", "inhibition": "73.4%"}
{"organism": "Arabidopsis thaliana", "test": "root length", "system": "Col-0, seedlings", "setting": "6.25 µg/mL", "inhibition": "60%"}
{"organism": "Arabidopsis thaliana", "test": "root length", "system": "Col-0, seedlings", "setting": "50 µg/mL, half-strength MS", "inhibition": "99.1%"}
{"organism": "Arabidopsis thaliana", "test": "root length", "system": "Col-0, seedlings", "setting": "50 µg/mL, with BCAA", "inhibition": "10.5%"}
{"organism": "Arabidopsis thaliana", "test": "root length", "system": "Col-0", "setting": "6.25 µg/mL, 7 days, seed germination, dark", "inhibition": "60.1%"}
{"organism": "Arabidopsis thaliana", "test": "root length", "system": "Col-0", "setting": "12.5 µg/mL, 7 days, seed germination, dark", "inhibition": "73.4%"}
{"organism": "Alopecurus aequalis", "test": "fresh weight", "setting": "150 g ai/ha, pre-emergence treatment", "inhibition": "45.2% and 40.2% and 45.1%"}
{"organism": "Arabidopsis thaliana", "test": "hypocotyl length", "system": "Col-0, seedlings", "setting": "50 µg/mL", "inhibition": "95.7%"}
{"data": "Further values, each from its own experiment"}
{"Structure (SMILES)": "Cc1ccc(O)c(C)c1-c1cnc2[nH]c(-c3cnc(N4CCC(CN5CCC(c6ccc(NC7CCC(=O)NC7=O)cc6F)CC5)CC4)nc3)cc2c1C#N (centres unmarked)", "tested on": "HCC1569", "test": "CDK1 Thr14 phosphorylation, in-cell western", "setting": "333.33 nM", "scale": "lower = stronger inhibition", "quantity": "phospho-CDK1 (Thr14) level", "result": "89.4 a.u. and 86.2 a.u."}
{"Structure (SMILES)": "Cc1nc(C)c(C=[N+]([O-])C(C)(C)C)nc1C", "test": "footprint test", "system": "MPTP-induced Parkinson's disease mouse model", "setting": "90 mg/kg", "quantity": "stride length", "result": "7.89 cm and 6.3 cm and 7.09 cm and 5.87 cm and 5.67 cm and 6.29 cm and 5.95 cm"}
{"Structure (SMILES)": "Cc1ccc(O)c(C)c1-c1cnc2[nH]c(-c3cnc(N4CCC5(CC4)CC(N4CCN(c6ccc(NC7CCC(=O)NC7=O)cc6F)CC4)CO5)nc3)cc2c1C#N (centres unmarked)", "system": "female CD-1 mouse, plasma", "setting": "oral, 60 mg/kg", "quantity": "bioavailability", "result": "50%"}
{"Structure (SMILES)": "Cc1ncsc1-c1ccc(C(CO)NC(=O)C2CC(O)CN2C(=O)C(C(C)C)n2cc(-c3ccc(COc4c(-c5c(C)c(F)cc6[nH]ncc56)c(C5CC5)cc5c(N6CC7CC6CN7)nc(OC6CCOCC6)nc45)cc3)nn2)cc1 (centres unmarked)", "system": "PK-1 xenograft, mouse", "setting": "30 mg/kg twice weekly, day 7", "quantity": "tumour volume", "result": "153 mm3 and 177 mm3 and 131 mm3 and 142 mm3 and 85.6 mm3"}
{"Structure (SMILES)": "Cc1ccc(O)c(C)c1-c1cnc2[nH]c(-c3cnc(N4CCC(CN5CCN(c6cc7c(cc6F)c(N6CCC(=O)NC6=O)nn7C)CC5)CC4)nc3)cc2c1C#N", "tested on": "HCC1569", "test": "CDK1 Thr14 phosphorylation, in-cell western", "setting": "333.33 nM", "scale": "lower = stronger inhibition", "quantity": "phospho-CDK1 (Thr14) level", "result": "110 a.u. and 87.1 a.u."}
{"Structure (SMILES)": "Cc1ncsc1-c1ccc(C2(NC(=O)C3CC(O)CN3C(=O)C(NC(=O)c3ccc(COc4c(-c5c(C)c(F)cc6[nH]ncc56)c(C5CC5)cc5c(N6CC7CC6CN7)nc(OC6CCOCC6)nc45)cc3)C(C)C)CC2)cc1 (centres unmarked)", "tested on": "AsPC-1", "test": "cell growth, CellTiter-Glo", "quantity": "pIC50", "result": "6.53 and 6.46 and 6.54"}
{"Structure (SMILES)": "Cc1ccc(O)c(C)c1-c1cnc2[nH]c(-c3cnc(N4CCC5(CC4)CC(N4CCN(c6cc7c(cc6F)c(N6CCC(=O)NC6=O)nn7C)CC4)CO5)nc3)cc2c1C#N (racemic)", "tested on": "PKMYT1 (Homo sapiens, UniProt Q99640)", "test": "degrader, automated immunoblot (Jess)", "setting": "100 nM", "scale": "baseline: GAPDH", "quantity": "protein level", "result": "45.4%"}
{"note": "Excerpt of the above (study 1):"}
{"test": "refers to: H6PD", "log2 fold change": -0.945}
{"test": "refers to: NFIC mRNA", "log2 fold change": -0.969}
{"test": "refers to: NPAS4 mRNA", "log2 fold change": -2.98}
{"test": "refers to: LRR1 mRNA", "log2 fold change": -1.33}
{"test": "refers to: HOXB9 mRNA", "log2 fold change": 4.26}
